Measured values of several laboratories.
A part holds a random share of what one study measured. Several values in a cell are separate wells, animals, samples, runs or records. Positions count from the first letter of the parent shown.
Chain of UniProt Q9BYP7 (whole entry, looked up): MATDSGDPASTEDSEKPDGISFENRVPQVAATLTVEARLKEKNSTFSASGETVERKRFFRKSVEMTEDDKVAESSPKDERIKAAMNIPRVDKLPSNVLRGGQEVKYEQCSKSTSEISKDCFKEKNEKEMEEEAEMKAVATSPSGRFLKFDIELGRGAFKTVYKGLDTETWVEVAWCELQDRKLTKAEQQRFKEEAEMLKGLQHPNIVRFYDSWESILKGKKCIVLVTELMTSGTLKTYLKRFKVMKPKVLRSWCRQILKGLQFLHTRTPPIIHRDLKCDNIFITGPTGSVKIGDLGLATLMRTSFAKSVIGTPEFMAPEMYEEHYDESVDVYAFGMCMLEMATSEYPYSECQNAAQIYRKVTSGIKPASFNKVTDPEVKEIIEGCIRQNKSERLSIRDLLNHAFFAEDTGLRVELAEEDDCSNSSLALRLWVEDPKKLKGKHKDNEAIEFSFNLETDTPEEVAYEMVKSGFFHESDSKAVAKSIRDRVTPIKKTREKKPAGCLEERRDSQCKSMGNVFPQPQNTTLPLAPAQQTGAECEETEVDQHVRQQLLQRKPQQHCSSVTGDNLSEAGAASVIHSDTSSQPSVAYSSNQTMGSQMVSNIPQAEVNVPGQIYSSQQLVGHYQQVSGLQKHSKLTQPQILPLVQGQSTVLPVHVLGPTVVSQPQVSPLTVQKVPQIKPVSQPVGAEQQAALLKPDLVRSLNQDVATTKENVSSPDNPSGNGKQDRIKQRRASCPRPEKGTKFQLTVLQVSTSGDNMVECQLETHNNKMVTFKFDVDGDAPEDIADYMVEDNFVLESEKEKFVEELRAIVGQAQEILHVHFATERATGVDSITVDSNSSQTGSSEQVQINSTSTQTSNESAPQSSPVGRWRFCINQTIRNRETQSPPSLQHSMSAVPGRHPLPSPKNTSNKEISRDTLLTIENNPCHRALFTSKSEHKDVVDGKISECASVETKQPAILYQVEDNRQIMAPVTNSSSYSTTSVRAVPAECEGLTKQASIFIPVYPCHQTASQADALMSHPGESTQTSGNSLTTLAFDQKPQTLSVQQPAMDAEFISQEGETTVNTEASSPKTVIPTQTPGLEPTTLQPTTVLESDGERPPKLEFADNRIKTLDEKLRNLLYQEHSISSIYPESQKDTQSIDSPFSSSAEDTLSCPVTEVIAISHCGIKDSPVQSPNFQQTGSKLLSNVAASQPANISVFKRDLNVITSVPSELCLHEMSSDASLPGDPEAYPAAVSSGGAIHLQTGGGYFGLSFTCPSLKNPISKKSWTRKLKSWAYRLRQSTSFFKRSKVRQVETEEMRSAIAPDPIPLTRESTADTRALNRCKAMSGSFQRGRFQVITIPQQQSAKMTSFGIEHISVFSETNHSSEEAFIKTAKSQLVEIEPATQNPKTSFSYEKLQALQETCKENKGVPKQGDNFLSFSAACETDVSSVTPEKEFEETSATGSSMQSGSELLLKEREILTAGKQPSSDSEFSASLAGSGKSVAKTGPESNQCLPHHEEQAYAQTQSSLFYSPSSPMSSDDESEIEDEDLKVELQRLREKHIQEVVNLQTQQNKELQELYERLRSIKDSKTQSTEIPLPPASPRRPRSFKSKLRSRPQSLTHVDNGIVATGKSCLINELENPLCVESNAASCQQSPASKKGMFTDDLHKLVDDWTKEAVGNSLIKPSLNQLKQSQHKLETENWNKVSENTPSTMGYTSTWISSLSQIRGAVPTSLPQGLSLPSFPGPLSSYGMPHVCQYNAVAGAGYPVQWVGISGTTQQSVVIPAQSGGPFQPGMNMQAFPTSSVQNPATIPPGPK
Chain of UniProt Q16644 (whole entry, looked up): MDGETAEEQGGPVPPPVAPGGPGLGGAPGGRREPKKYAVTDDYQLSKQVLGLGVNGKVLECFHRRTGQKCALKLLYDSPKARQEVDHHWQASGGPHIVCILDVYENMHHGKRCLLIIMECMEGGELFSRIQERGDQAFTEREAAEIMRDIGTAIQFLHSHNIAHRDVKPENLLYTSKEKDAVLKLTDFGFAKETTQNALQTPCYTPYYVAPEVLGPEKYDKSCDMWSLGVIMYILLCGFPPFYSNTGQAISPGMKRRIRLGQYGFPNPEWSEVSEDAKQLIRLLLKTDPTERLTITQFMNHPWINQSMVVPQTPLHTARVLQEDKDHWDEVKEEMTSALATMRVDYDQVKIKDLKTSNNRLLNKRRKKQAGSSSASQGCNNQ
Chain of UniProt P54760 (whole entry, looked up): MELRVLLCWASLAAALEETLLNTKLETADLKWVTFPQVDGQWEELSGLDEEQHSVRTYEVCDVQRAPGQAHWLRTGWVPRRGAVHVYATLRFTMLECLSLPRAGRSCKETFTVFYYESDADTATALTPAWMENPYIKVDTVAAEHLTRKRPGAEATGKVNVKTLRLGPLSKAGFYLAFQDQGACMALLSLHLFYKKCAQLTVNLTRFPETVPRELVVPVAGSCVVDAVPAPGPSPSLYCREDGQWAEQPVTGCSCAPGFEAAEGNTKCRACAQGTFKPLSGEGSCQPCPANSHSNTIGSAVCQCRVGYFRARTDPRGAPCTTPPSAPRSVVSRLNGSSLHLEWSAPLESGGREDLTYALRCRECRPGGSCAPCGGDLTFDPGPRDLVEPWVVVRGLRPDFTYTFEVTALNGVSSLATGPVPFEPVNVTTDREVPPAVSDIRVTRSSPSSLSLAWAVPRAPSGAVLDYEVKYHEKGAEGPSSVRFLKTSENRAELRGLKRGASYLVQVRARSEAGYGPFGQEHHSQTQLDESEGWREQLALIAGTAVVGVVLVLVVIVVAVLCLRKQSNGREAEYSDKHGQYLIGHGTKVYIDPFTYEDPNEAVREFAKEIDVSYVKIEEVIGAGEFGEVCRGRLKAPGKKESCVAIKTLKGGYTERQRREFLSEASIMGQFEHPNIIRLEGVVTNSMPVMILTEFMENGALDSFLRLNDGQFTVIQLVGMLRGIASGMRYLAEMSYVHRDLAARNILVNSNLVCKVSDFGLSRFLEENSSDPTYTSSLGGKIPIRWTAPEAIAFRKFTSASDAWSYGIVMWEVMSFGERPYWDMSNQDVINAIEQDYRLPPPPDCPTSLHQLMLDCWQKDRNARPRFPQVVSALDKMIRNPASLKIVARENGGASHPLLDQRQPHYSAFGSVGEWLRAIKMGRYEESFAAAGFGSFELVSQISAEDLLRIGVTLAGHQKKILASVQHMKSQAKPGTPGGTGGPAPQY
Chain of UniProt Q9UEE5 (whole entry, looked up): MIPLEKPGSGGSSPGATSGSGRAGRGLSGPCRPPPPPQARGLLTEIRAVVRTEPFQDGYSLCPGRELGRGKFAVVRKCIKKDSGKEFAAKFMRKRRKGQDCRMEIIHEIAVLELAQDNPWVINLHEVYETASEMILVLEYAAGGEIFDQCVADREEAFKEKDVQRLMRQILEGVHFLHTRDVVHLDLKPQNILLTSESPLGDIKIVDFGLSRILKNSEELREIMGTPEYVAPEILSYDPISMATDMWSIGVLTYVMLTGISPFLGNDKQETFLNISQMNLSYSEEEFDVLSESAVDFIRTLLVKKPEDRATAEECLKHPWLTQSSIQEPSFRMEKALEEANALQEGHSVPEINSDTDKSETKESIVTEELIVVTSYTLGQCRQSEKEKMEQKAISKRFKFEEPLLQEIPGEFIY

Block 1
Target: CCND1, cyclin fold, Cln2 fusion (human)
Technique: yeast growth competition, sequencing
Medium: yeast
Setting: strong parent motif
Baseline: not given
Direction: higher = stronger binding
Parent: viral docking peptide; YKVKRRLVFGADD; partner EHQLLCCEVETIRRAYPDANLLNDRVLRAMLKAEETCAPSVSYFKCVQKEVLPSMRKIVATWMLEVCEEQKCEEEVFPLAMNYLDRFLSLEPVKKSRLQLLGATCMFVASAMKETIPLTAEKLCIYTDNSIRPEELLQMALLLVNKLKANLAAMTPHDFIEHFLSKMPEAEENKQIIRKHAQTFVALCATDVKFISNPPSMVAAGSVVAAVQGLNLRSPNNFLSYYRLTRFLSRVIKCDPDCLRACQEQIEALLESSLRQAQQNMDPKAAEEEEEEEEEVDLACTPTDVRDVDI
Change | normalised enrichment score
YKLKRRLVFGADD [V3L] | 0.455
YKVSRRLVFGADD [K4S] | 2.74
YSVKRRLVFGADD [K2S] | 2.89
YKVKRRLVFFADD [G10F] | 0.586
YKVKRRLPFGADD [V8P] | 0.0404
YKVKRRLVKGADD [F9K] | -0.154
YKVKRRLAFGADD [V8A] | 0.785
YKVQRRLVFGADD [K4Q] | 2.89

Block 2
SMILES: CC[C@H](C)c1nc2cc(Nc3ccnc4ccc(S(=O)(=O)C(C)C)cc34)ccc2s1.Cl
Cell line: HT-29
Effect on: necroptosis protection
Technique: CCK-8
Added: TNF-α SMAC mimetic zVAD
conditions | viability
1.25 µM | 22.7% and 40.9% and 23.5% and 16.2%
0.078 µM | 16.2% and 19% and 19.3% and 15.7%
5 µM | 89.8% and 55.4% and 66.9% and 53.8%

Block 3
Compound: N/C(=N\[N+](=O)[O-])N/N=C\c1ccc(-c2cccc([N+](=O)[O-])c2)o1
Effect on: enzyme activity
Mode: inhibitor
Tested at: 0.5 µM
Baseline: control
target | remaining activity [%]
Ephrin type-B receptor 4 (EPHB4, Homo sapiens, UniProt P54760) | 91.6
Serine/threonine-protein kinase WNK3 (WNK3, Homo sapiens, UniProt Q9BYP7) | 96.6
MAP kinase-activated protein kinase 3 (MAPKAPK3, Homo sapiens, UniProt Q16644) | 95.4
Serine/threonine-protein kinase 17A (STK17A, Homo sapiens, UniProt Q9UEE5) | 100

Block 4
Target: Muscarinic acetylcholine receptor M1 (CHRM1, Homo sapiens, UniProt P11229)
Chain of UniProt P11229 (whole entry, looked up): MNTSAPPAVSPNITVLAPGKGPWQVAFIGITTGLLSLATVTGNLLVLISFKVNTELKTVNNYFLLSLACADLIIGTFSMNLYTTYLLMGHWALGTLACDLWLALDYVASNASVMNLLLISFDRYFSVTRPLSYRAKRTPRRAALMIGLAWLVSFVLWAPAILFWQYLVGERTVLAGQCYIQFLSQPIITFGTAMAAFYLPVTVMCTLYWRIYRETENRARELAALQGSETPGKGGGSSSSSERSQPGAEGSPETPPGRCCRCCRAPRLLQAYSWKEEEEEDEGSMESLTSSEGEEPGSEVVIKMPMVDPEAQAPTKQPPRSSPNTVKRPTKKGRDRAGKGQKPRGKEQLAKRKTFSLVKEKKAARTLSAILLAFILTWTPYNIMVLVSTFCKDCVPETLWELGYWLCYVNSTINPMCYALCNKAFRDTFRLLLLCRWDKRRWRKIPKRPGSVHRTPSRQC
Effect on: ligand displacement
Tested at: 10 µM
Structure (SMILES) | inhibition [%]
O=C(NCCCC1CCCCC1)c1ccc(CNC(=O)c2cnn(-c3ccccc3)c2C(F)(F)F)cc1 | 11.8
O=c1nc(-c2ccccn2)sc2ccccc12 | -5.27
CCC(=NO)C(C)=Cc1ccc(F)c(C)c1 | -2.46
CN(C)C(=O)c1sc2nc(N3CCC(S(C)(=O)=O)CC3)cc(C(F)(F)F)c2c1N | 0.25
CCC(F)(F)c1cc(N2CCC(S(C)(=O)=O)CC2)nc2sc(C(N)=O)c(N)c12 | 8.33
CS(=O)(=O)N1CCCC(NC(=O)[C@H](CCC2CCCCC2)NC(=O)c2ccc(CNC(=O)c3cnc4ccccn34)cc2)C1 (stereo partly drawn) | 28.4

Some of these lines once more (block 4):
Structure (SMILES) | inhibition [%]
CCC(F)(F)c1cc(N2CCC(S(C)(=O)=O)CC2)nc2sc(C(N)=O)c(N)c12 | 8.33
CCC(=NO)C(C)=Cc1ccc(F)c(C)c1 | -2.46
CN(C)C(=O)c1sc2nc(N3CCC(S(C)(=O)=O)CC3)cc(C(F)(F)F)c2c1N | 0.25
